# Assay results collected from several papers.
# Numbered parts are unrelated; each lists some results of a single study.
# UniProt Q6DT37, sequence (whole entry, looked up): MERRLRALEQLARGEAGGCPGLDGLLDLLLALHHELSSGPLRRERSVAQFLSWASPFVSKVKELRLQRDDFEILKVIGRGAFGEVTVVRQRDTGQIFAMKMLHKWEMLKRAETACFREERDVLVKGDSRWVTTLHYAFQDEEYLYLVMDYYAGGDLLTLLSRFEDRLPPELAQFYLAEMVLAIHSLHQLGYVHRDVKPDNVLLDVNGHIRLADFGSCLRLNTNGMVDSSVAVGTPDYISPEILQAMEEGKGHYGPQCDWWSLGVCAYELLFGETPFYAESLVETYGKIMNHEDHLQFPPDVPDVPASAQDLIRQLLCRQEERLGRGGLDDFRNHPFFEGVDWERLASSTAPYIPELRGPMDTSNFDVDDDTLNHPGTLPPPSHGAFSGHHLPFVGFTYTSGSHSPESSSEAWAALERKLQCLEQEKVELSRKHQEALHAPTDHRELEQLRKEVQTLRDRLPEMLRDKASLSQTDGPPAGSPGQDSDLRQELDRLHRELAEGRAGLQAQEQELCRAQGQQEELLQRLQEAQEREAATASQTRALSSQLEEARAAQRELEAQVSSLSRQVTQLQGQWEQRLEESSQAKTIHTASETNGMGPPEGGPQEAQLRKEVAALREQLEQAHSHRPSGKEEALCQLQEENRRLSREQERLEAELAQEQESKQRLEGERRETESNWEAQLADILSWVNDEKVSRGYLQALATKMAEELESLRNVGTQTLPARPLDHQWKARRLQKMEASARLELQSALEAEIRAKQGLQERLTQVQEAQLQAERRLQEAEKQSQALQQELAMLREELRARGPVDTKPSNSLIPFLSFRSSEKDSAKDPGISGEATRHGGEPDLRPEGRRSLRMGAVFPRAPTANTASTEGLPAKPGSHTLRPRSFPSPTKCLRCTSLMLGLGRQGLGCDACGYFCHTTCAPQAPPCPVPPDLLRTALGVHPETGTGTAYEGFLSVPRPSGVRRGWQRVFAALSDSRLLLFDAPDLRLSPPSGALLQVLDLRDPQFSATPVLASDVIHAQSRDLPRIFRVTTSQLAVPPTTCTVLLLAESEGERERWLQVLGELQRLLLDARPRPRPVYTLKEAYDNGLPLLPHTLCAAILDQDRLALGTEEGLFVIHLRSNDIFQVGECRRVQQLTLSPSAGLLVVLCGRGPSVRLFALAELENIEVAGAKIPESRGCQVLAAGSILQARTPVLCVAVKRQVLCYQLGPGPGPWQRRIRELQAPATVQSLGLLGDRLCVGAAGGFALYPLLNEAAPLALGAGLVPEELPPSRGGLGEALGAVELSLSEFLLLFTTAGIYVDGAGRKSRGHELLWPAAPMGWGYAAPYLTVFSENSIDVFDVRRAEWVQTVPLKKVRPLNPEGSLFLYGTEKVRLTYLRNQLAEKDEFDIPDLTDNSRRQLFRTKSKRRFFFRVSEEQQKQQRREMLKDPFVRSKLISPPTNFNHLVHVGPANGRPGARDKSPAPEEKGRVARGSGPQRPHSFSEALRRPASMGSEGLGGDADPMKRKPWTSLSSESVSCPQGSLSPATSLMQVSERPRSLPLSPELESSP
# UniProt P42336, sequence (whole entry, unmodified, looked up): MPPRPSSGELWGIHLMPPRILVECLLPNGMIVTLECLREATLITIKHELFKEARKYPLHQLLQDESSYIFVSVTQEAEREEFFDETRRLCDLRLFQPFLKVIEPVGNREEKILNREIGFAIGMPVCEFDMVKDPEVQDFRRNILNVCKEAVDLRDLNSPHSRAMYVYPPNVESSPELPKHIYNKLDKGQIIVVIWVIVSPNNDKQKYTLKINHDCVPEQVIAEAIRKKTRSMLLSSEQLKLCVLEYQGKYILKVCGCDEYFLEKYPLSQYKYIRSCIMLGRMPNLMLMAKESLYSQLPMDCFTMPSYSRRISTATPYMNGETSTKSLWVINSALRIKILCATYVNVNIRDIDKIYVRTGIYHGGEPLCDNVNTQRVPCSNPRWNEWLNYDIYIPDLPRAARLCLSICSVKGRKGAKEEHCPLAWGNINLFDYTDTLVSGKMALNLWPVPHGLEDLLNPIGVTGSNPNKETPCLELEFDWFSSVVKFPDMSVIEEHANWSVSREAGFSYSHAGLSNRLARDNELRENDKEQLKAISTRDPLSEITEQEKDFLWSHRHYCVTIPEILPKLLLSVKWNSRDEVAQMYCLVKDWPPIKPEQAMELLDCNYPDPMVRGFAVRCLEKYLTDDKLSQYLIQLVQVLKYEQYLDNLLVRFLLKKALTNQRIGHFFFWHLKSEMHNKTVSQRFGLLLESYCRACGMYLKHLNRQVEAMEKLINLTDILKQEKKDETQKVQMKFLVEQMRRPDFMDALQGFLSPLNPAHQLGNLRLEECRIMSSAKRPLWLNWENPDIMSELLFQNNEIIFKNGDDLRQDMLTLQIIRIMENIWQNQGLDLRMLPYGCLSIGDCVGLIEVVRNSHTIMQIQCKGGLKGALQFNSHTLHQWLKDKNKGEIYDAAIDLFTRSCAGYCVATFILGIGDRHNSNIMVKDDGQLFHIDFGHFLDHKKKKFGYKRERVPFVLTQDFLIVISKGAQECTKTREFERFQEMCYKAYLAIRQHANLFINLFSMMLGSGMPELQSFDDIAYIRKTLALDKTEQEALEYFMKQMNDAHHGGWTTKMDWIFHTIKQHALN
# UniProt Q13163, sequence (whole entry, looked up): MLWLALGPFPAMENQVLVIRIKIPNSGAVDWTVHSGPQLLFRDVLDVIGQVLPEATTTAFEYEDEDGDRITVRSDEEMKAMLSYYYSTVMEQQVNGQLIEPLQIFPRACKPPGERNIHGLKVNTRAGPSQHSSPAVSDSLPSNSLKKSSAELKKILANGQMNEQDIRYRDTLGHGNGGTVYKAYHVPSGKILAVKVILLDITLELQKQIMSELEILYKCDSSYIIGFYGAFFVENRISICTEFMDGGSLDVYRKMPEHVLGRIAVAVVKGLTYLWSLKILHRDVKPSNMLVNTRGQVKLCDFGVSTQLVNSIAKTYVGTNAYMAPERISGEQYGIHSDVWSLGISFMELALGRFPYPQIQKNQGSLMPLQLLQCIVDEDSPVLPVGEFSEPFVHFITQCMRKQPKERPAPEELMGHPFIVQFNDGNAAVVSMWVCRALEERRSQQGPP
# UniProt Q15349, sequence (whole entry, looked up): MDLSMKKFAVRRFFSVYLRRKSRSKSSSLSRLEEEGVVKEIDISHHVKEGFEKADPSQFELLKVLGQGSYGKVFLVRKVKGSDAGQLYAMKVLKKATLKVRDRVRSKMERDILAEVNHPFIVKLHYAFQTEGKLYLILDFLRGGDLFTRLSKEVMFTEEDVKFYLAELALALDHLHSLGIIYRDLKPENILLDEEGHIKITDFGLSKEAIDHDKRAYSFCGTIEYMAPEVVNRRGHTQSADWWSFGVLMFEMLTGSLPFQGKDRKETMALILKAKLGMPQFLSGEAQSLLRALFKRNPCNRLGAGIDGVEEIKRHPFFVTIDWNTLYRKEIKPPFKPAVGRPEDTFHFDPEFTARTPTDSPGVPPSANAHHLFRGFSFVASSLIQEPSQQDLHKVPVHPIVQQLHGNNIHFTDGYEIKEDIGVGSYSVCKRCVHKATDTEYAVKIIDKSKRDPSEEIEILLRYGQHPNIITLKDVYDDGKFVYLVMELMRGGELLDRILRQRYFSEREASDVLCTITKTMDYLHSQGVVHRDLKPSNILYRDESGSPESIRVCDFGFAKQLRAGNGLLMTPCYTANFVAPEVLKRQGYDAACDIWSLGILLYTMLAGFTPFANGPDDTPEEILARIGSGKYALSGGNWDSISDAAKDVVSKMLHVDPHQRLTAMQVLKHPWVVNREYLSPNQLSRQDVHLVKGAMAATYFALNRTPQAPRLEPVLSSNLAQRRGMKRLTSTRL
# UniProt P37023, sequence (whole entry, looked up): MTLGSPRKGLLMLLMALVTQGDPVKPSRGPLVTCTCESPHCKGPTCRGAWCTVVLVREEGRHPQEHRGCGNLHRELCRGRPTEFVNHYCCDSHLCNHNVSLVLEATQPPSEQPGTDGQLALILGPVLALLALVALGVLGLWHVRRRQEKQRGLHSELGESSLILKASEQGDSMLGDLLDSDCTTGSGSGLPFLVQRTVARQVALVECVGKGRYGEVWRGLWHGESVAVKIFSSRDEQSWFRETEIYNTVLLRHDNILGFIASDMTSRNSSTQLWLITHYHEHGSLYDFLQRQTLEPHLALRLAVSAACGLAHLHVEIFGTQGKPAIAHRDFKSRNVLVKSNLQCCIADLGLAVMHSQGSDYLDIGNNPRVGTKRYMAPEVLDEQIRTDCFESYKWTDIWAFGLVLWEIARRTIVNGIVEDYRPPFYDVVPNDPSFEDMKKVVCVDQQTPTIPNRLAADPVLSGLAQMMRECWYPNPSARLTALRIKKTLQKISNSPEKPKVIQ

# Series 1
# Cell line: Huh-7
# Tested at: 10 µM
# Time: 24 h
SMILES,viability
CC(=O)N[C@@H](CS)C(=O)O,101%
CN[C@@H]1[C@@H](O)[C@@H](O[C@@H]2[C@@H](O)[C@H](O[C@H]3OC(CN)=CC[C@H]3N)[C@@H](N)C[C@H]2N)OC[C@]1(C)O,99.3%
CCCNC(=O)NS(=O)(=O)c1ccc(Cl)cc1,103%
CC(=O)Nc1ccc(S(=O)(=O)Nc2ccc([N+](=O)[O-])cc2)cc1,97%
C[C@@H]1[C@H](O)[C@@H](C)/C=C/C=C/C=C/C=C/C=C/C=C/C=C/[C@H](O[C@@H]2O[C@H](C)[C@@H](O)[C@H](N)[C@@H]2O)C[C@@H]2O[C@](O)(C[C@@H](O)C[C@@H](O)[C@H](O)CC[C@@H](O)C[C@@H](O)CC(=O)O[C@H]1C)C[C@H](O)[C@H]2C(=O)O,70.2%
CO/N=C(\C(=O)N[C@@H]1C(=O)N2C(C(=O)OCOC(=O)C(C)(C)C)=C(/C=C\c3scnc3C)CS[C@H]12)c1csc(N)n1,96%
CC1(C)O[C@@H]2C[C@H]3[C@@H]4CCC5=CC(=O)CC[C@]5(C)[C@@]4(F)[C@@H](O)C[C@]3(C)[C@]2(C(=O)CCl)O1,99.7%
C#C[C@]1(O)CC[C@H]2[C@@H]3CCC4=Cc5oncc5C[C@]4(C)[C@H]3CC[C@@]21C,85.3%
Cc1nc2sccn2c(=O)c1CCN1CCC(=C(c2ccc(F)cc2)c2ccc(F)cc2)CC1,97.1%
OCc1ccccc1O,105%
CNC[C@H](O)c1ccc(O)c(O)c1,101%
Oc1ccc(OCc2ccccc2)cc1,74.9%
O=c1oc2ccccc2c(O)c1Cc1c(O)c2ccccc2oc1=O,87.9%
CC(=O)OCC(=O)[C@@]1(O)CC[C@H]2[C@@H]3CCC4=CC(=O)CC[C@]4(C)[C@H]3C(=O)C[C@@]21C,92%
CN(C)CCOC(c1ccc(Cl)cc1)c1ccccn1 (stereo not shown),102%

# Series 2
# Target: Ribosomal protein S6 kinase alpha-1 (RPS6KA1, Homo sapiens, UniProt Q15418)
# UniProt Q15418, sequence (whole entry, looked up): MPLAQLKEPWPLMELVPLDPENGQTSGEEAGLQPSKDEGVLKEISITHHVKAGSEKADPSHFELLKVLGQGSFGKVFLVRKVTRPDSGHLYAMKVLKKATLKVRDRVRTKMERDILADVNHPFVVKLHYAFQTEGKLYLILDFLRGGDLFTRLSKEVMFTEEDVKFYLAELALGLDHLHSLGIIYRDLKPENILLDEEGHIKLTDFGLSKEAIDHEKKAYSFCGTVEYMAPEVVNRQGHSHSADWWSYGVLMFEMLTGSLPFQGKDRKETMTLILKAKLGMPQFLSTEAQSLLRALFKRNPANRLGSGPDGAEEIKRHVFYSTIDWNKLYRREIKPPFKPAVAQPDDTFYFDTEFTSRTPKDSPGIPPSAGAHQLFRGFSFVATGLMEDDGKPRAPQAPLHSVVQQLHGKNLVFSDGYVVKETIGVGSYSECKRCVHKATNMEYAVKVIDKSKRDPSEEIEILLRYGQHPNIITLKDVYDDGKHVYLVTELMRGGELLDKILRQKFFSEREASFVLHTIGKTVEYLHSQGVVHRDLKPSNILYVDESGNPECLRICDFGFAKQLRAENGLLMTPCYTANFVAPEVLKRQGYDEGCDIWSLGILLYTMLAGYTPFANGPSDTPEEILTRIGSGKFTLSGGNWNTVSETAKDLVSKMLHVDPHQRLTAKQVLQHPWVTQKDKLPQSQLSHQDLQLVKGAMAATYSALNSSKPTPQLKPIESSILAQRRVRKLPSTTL
# Read-out: enzyme activity
# Action: inhibitor
# Tested at: 0.5 µM
# Relative to: control
Compound,remaining activity [%]
Ic1cccc(CSc2nnc(-c3ccncc3)o2)c1,98.6
c1ccc(-c2[nH]ncc2-c2ccnc3ccccc23)nc1,88.1
c1ccc(-c2cnc(Nc3ccc(OCCN4CCCC4)cc3)s2)cc1,78
O=c1cc(-c2cccc3c2Sc2ccccc2S3)oc(N2CCOCC2)c1,97.6
Cc1nc2cc3nc(-c4cccs4)cnc3cc2n1C,99.4
N#Cc1c(NC(=O)c2cccc3ccccc23)sc2c1CCCC2,86.1
CCOc1nc(NC(=O)Cc2cc(OC)ccc2OC)cc(N)c1C#N,79.9
O=C1c2ccccc2-c2n[nH]c3cccc1c23,68.4
COc1cc2ncnc(Nc3ccc(O)c(Br)c3)c2cc1OC,78.2
COc1cc2c(cc1OC)-c1[nH]nc(Nc3cccc(F)c3)c1C2,84.1
Cc1cn(-c2cc(NC(=O)c3ccc(C)c(Nc4nccc(-c5cccnc5)n4)c3)cc(C(F)(F)F)c2)cn1,104
O=C1C(Cl)=C(N2C(=O)CCC2=O)C(=O)c2ccccc21,96.6
Cc1cc2ncc(-c3ccccc3)nc2cc1C,99.2
O=C(Nc1cccc(Nc2nccc(Nc3cccc(C(F)(F)F)c3)n2)c1)C1CC1,92.8
O=C(NC(NC(=S)Nc1ccc(F)c([N+](=O)[O-])c1)C(Cl)(Cl)Cl)C(c1ccccc1)c1ccccc1 (stereo not shown),105
Nc1cccc(-c2cc3c(Oc4cccc(O)c4)ncnc3[nH]2)c1,105
CCN(CC)CCNC(=O)c1c(C)[nH]c(/C=C2\C(=O)Nc3ccc(Cl)cc32)c1C,13.1
COc1cc2ncnc(Nc3cccc(Cl)c3)c2cc1OC,87.3
CN([C@@H](Cc1ccc(OS(=O)(=O)c2cccc3cnccc23)cc1)C(=O)N1CCN(c2ccccc2)CC1)S(=O)(=O)c1cccc2cnccc12,109
Cn1nc2c3c(cccc31)C(=O)c1ccccc1-2,93.7
CCN(CC)C(=O)c1ccc(Nc2nc(OCC3CCCCC3)c3[nH]cnc3n2)cc1,57.1
CN(C)C[C@H]1CCn2c(c(C3=C(c4cn(C)c5ccccc45)C(=O)NC3=O)c3ccccc32)C1,5.9

# Series 3
# SMILES: CCOC(=O)c1cc2cc(-c3cc(C(=O)NCc4ccc(C(=O)O)cc4)nn3C)ccc2[nH]1
# Tested at: 0.1 µM
target,test,remaining binding
"NTRK2 (Homo sapiens, UniProt Q16620)","cell-free assay, competition with immobilised ligand",91%
"CSNK2A2 (Homo sapiens, UniProt P19784)","cell-free assay, competition with immobilised ligand",87%
"NIM1K (Homo sapiens, UniProt Q8IY84)","cell-free assay, competition with immobilised ligand",79%
"MAP3K19 (Homo sapiens, UniProt Q56UN5)","cell-free assay, competition with immobilised ligand",75%
"PIK3CA (Homo sapiens, UniProt P42336, M1043I)","cell-free assay, competition with immobilised ligand",100%
"BMP2K (Homo sapiens, UniProt Q9NSY1)","cell-free assay, competition with immobilised ligand",100%
"COQ8B (Homo sapiens, UniProt Q96D53)","cell-free assay, competition with immobilised ligand",100%
"ALK (Homo sapiens, UniProt Q9UM73)","cell-free assay, competition with immobilised ligand",98%
"BTK (Homo sapiens, UniProt Q06187)","cell-free assay, competition with immobilised ligand",77%
"CDK2 (Homo sapiens, UniProt P24941)","cell-free assay, competition with immobilised ligand",90%
"CDC42BPG (Homo sapiens, UniProt Q6DT37)",competition binding,93%
"Ribosomal protein S6 kinase alpha-5, N-terminal kinase domain (RPS6KA5, Homo sapiens, UniProt O75582)","cell-free assay, competition with immobilised ligand",91%
"MST1R (Homo sapiens, UniProt Q04912)","cell-free assay, competition with immobilised ligand",100%
"Ribosomal protein S6 kinase alpha-2, N-terminal kinase domain (RPS6KA2, Homo sapiens, UniProt Q15349)","cell-free assay, competition with immobilised ligand",100%
"WNK1 (Homo sapiens, UniProt Q9H4A3)","cell-free assay, competition with immobilised ligand",93%
"PIK3C2G (Homo sapiens, UniProt O75747)","cell-free assay, competition with immobilised ligand",100%
"TAOK1 (Homo sapiens, UniProt Q7L7X3)","cell-free assay, competition with immobilised ligand",90%
"MAP3K10 (Homo sapiens, UniProt Q02779)","cell-free assay, competition with immobilised ligand",70%
"BRAF (Homo sapiens, UniProt P15056)","cell-free assay, competition with immobilised ligand",91%
"DYRK2 (Homo sapiens, UniProt Q92630)","cell-free assay, competition with immobilised ligand",76%
"KIT (Homo sapiens, UniProt P10721)","cell-free assay, competition with immobilised ligand",97%
"ACVRL1 (Homo sapiens, UniProt P37023)","cell-free assay, competition with immobilised ligand",68%
"SNRK (Homo sapiens, UniProt Q9NRH2)","cell-free assay, competition with immobilised ligand",80%
"MAP2K5 (Homo sapiens, UniProt Q13163)","cell-free assay, competition with immobilised ligand",82%
"Ribosomal protein S6 kinase alpha-1, N-terminal kinase domain (RPS6KA1, Homo sapiens, UniProt Q15418)","cell-free assay, competition with immobilised ligand",97%

# Series 4
# Species: human
# Sample: microsomes or S9
# Tested at: 2 µM
# Time: 0.5 h
SMILES,remaining compound
COc1ccc([C@H]2COc3c(ccc(O)c3OC)C2)c(OC)c1O,> 99%
Cc1nc2[nH]c(CCCCOCc3ccccc3)nc2cc1Br,5.81%
CC(c1cnccn1)N1CCN(S(C)(=O)=O)c2ccccc2C1 (stereo not shown),1.02%
Oc1cccc(-c2ncc(-c3ccccc3O)o2)c1,3.13%
COc1cc(=O)n2c(c1C(=O)Nc1ccc(C(F)(F)F)cc1)CCCC2,54.9%
CCOC(=O)CNC(=O)N1Cc2c(sc3c2CCCC3)-n2cccc2C1c1ccc(C(C)C)cc1 (stereo not shown),0.204%
Cc1ccc(-c2noc(=O)n2Cc2ccc(S(=O)(=O)N(C)C)cc2)cc1,2.94%
O=C(Nc1cccc(F)c1)C1CC(=O)N(Cc2ccccn2)c2nc3ccccc3n21 (stereo not shown),51.6%
CNC(=O)/C(=C/OC)n1c(-c2ccc(F)cc2F)noc1=O,83.6%
Fc1ccc(-c2n[nH]cc2Cn2cnc(-c3ccccc3)c2-c2ncc[nH]2)cc1,17.1%
O=C(O)C1CC=CCC1C(=O)/N=c1\[nH]ccs1 (stereo not shown),84%

# Some of these lines once more (series 2):
Compound,remaining activity [%]
c1ccc(-c2[nH]ncc2-c2ccnc3ccccc23)nc1,88.1
c1ccc(-c2cnc(Nc3ccc(OCCN4CCCC4)cc3)s2)cc1,78
O=c1cc(-c2cccc3c2Sc2ccccc2S3)oc(N2CCOCC2)c1,97.6
Cc1nc2cc3nc(-c4cccs4)cnc3cc2n1C,99.4
N#Cc1c(NC(=O)c2cccc3ccccc23)sc2c1CCCC2,86.1
CCOc1nc(NC(=O)Cc2cc(OC)ccc2OC)cc(N)c1C#N,79.9
O=C1c2ccccc2-c2n[nH]c3cccc1c23,68.4
COc1cc2ncnc(Nc3ccc(O)c(Br)c3)c2cc1OC,78.2
COc1cc2c(cc1OC)-c1[nH]nc(Nc3cccc(F)c3)c1C2,84.1
Cc1cn(-c2cc(NC(=O)c3ccc(C)c(Nc4nccc(-c5cccnc5)n4)c3)cc(C(F)(F)F)c2)cn1,104
O=C1C(Cl)=C(N2C(=O)CCC2=O)C(=O)c2ccccc21,96.6
